Results pooled from the literature.
Each numbered part is a random draw from the data of one study; scales do not carry over between parts. Positions count from the first letter of the parent shown.

Set 1 — technique: protein-binding microarray; form: double-stranded DNA, one strand shown; medium: in vitro; tested at: 250 nM; setting: 60-bp whole probe; with: salmon DNA 0.4 mg/ml; relative to: random background probes; reading: higher = stronger binding; quantity: log fluorescence; shared flanks, not repeated: GCCTAGCAC … GTCTTGATTCGCTTGACGCTGCTG
Target: Interferon regulatory factor 5, full length, phosphomimetic (IRF5, Homo sapiens, UniProt Q13568-2, residues 1-514, K96S/S451D/S453D/S456D/S462D)
TCAAAATTCTAATTAGAACTGTGCTAG: 0.323 z-score
GACGATATCGGGACAGGAGACGTGCTA: 1.09 z-score
GTAGATATCAGTTTCGATTAGTGCTAG: 9.77 z-score
GCCGGACTGGACTTTCGGGACGTGCTA: 4.29 z-score
CCATCTCTCAAAAGTCACCCTGTGCTA: 0.036 z-score
TTAGGTTTCGGATTTCGGTTAGTGCTA: 8.27 z-score
GCCGGTTTCGGTTTCGGGACGTGCTAG: 10.9 z-score
GACGAACTGAGACTGGAGGCGTGCTAG: -0.368 z-score
TTAGATCTCCTTATCCTTTAGTGCTAG: 0.461 z-score
GACGGTCTCTTTCTCCTGACGTGCTAG: 1.12 z-score
TTAGGACTGGGGTTTCCGTTAGTGCTA: 0.199 z-score
GACGGACTGTACACTGGGGACGTGCTA: -0.631 z-score
TCACTTTCAGTTCTCCCACTGTGCTAG: 8.3 z-score

Set 2 — technique: RNA Bind-n-Seq; form: RNA; medium: in vitro; tested at: 200 nM; setting: whole 134-nt RNA, ends assumed; with: 150 mM KCl; relative to: input library; reading: higher = stronger binding; quantity: log2 enrichment
Target: Fragile X messenger ribonucleoprotein 1, C-terminal low-complexity region (Fmr1, Mus musculus, UniProt P35922)
Shared flanks, not repeated: GGGAGUUCUACAGUCCGACGAUC … UGGAAUUCUCGGGUGUCAAGG
CAAGUCCUGUGCUACACAUCGUAUGUACCGAAUCGGUUUUUGGUGGUUUUUUUGGAAAGUAUUAUGUUACGCCGUUCGGAUCUGCACUUC: -0.692
AAGUCCUGUGCUACACAUCGUAUGUACCGAAUCGGGGUGGGGUUUGGGGAAAGGGGAAAGUAUUAUGUUACGCCGUUCGGAUCUGCACUU: 1.17
CUGUGCUACACAUCGUAUGUACCGAAUCGGGGAAAAAAAGGGGAAAAAAAGGGGAAAGGGGAAAGUAUUAUGUUACGCCGUUCGGAUCUG: -0.347
AGUCCUGUGCUACACAUCGUAUGUACCGAAUCGGGCCCCGGCCCCGGGGCCCCGGGGAAAGUAUUAUGUUACGCCGUUCGGAUCUGCACU: -1.34
CAAGUCCUGUGCUACACAUCGUAUGUACCGAAUCGGGGCCGGGGCCGGGGCCGGGAAAGUAUUAUGUUACGCCGUUCGGAUCUGCACUUC: -0.474
UGGCCCUGGUGGCAUGCGGGGAGGAAGAGGUGGCCUCAUGGAUCGUGGUGGACCCGGUGGAAUGUUCAGAGGUGGCCGUGGUGGAGACAG: 0.23
UCCUGUGCUACACAUCGUAUGUACCGAAUCGGGAAAAAGGGAAAAAGGGUUUUUUUGGGAAAGUAUUAUGUUACGCCGUUCGGAUCUGCA: -0.326
GCAGGAAGUAAAAACAAAUGGAAAUGCUUCGGAUAGUGGCAGGGGUGGGGUUUGCUAAGGAAAGGGUGGGAUGGGAGUGGGUAAAGAGUU: 0.224
GUCCUGUGCUACACAUCGUAUGUACCGAAUCGGGGAAAGGGGUUUGGGGAAAAAGGGGAAAGUAUUAUGUUACGCCGUUCGGAUCUGCAC: 0.368

Set 3 — technique: protein binding microarray; form: double-stranded DNA, one strand shown; medium: in vitro; tested at: not given; relative to: not given; reading: higher = stronger binding; quantity: E-score
Target: Histone acetyltransferase KAT6A, winged helix 2, GST fusion (KAT6A, Homo sapiens, UniProt Q92794, residues 85-181)
Setting: 8-mer, flanks averaged, mean of 2 arrays, mostly near background
Construct (chain): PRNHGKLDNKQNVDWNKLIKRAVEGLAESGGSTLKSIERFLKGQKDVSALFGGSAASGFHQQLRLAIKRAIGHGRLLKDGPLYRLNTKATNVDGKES
ACCTAGGA: -0.144
CTCCCCAC: 0.00305
AGCTTGCC: 0.0604
GAACCATA: 0.0256
CGTAATAA: -0.268
CGACGGGC: 0.21
CGCGAGCA: 0.078
AATCCTCC: -0.126
CAGATGTA: -0.184
GTGTCGCA: -0.0574
GCCGACCC: 0.18
GCCCCTCC: 0.0605
ACCCCTAG: -0.249
AGAGGACT: -0.201
CGAATGCC: 0.0879
CGCAACTC: 0.181
CACCGCCG: 0.0671
CAGGAGAC: 0.00434
GCGAGGGA: 0.0592
GCGGACCA: 0.138
GCAACTTA: -0.0192
CAAGAGCG: 0.0257
GCAGAGAC: -0.0719

Set 4 — target: CCNA1, cyclin fold, Cln2 fusion (human); technique: yeast growth competition, sequencing; medium: yeast; setting: weak parent motif; relative to: not given; reading: higher = stronger binding; quantity: normalised enrichment score
Starting sequence: LLGL2 docking peptide (human); KSLKKSLRQSFRR; partner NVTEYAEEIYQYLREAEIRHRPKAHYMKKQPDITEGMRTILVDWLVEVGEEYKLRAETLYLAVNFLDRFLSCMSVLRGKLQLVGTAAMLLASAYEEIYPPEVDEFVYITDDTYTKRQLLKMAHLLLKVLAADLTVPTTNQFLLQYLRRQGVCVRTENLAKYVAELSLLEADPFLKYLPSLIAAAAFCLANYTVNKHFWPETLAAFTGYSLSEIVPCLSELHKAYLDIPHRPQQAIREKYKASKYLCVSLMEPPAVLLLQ
KSLKKALRQSFRR [S6A]: -0.351
KSLKASLRQSFRR [K5A]: -0.252
KSLAKSLRQSFRR [K4A]: -0.0732
KALKKSLRQSFRR [S2A]: 0.385
KSLKKSLRASFRR [Q9A]: 0.404
KSLKKSLRQAFRR [S10A]: -0.412
